Published values from different studies.
A part holds a random share of what one study measured. Changes are numbered by the printed parent chain.

Series 1
Target: Interferon regulatory factor 5, full length, phosphomimetic (IRF5, Homo sapiens, UniProt Q13568-2, residues 1-514, K96S/S451D/S453D/S456D/S462D)
Method: protein-binding microarray
Form: double-stranded DNA, one strand shown
Sample: in vitro
Concentration: 250 nM
Setting: 60-bp whole probe
Together with: salmon DNA 0.4 mg/ml
Baseline: random background probes
Direction: higher = stronger binding
All sequences stand within: GCCTAGCAC … GTCTTGATTCGCTTGACGCTGCTG
Sequence	log fluorescence [z-score]
GACGGGCTCGGTATCGGGACGTGCTAG	0.366
TTAGAACTGTGGTTTCGATTAGTGCTA	7.58
TCACTTTCCACTTTCTTACTGTGCTAG	3.02
TTAGGTCGCGGTTTCGGTTAGTGCTAG	7.8
TTAGGTGTCGACTTTCGGTTAGTGCTA	9.38
TCACCTTTACTTTCTTTACTGTGCTAG	2.58
TTAGATTGCAGTTTCGATTAGTGCTAG	9.14
GACGGTCTCGGTCTCGGGAGGTGCTAG	0.131
TCACATTTTCGTTTTTAACTGTGCTAG	5.35
TTAGGTATCCTTTTCCTTTCGTGCTAG	1.71
GTAGGTATCGGTTTCGGTTAGTGCTAG	11
TTAGGACTGCTACTGCTCTAGTGCTAG	-0.497
GTCACTCTCAGAATCTCTCAGTGCTAG	0.11
TTAGGTATCCTACTGCTGTAGTGCTAG	-0.277
CACGGTTTCGGTTCCGGGACGTGCTAG	9.66
TTAGGTATCGGTACCGGTTAGTGCTAG	6.61

Series 2
Target: Histone acetyltransferase KAT6A, winged helix 1, GST fusion (KAT6A, Homo sapiens, UniProt Q92794, residues 1-85)
Method: protein binding microarray
Form: double-stranded DNA, one strand shown
Sample: in vitro
Concentration: not given
Setting: 8-mer, flanks averaged, mean of 2 arrays, mostly near background
Baseline: not given
Direction: higher = stronger binding
Construct (chain): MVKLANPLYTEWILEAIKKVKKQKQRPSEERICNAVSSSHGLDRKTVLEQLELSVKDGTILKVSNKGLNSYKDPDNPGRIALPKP
Sequence	E-score
GAACATCA	-0.097
ATGCCGAA	0.17
GAACGGTC	0.128
CCTACGAC	-0.254
AATCTCCT	-0.161
TAACCCTA	-0.169
AAACTGTA	-0.0562
AGCCACCT	-0.241
AATCAACG	-0.122
ATCCCGCA	0.166
AGAGCTGC	0.0486
CCATGCCG	0.223
CTGGGAAC	-0.205
ACTTTGGC	-0.053
CTGCACAC	-0.21

Series 3
Target: CCNF, cyclin fold, Cln2 fusion (human)
Method: yeast growth competition, sequencing
Sample: yeast
Setting: strong parent motif
Baseline: not given
Direction: higher = stronger binding
Parent: E2F1 docking peptide (human); PPVKRRLDFETDH
Variant	normalised enrichment score
PPAKRRLDFETDH [V3A]	6.99
PPTKRRLDFETDH [V3T]	7.65
PPVKRRKDFETDH [L7K]	0.431
PPVGRRLDFETDH [K4G]	6.86
PPVNRRLDFETDH [K4N]	6.77
PPVKRRLDNETDH [F9N]	0.437
PPVKRRLDFETKH [D12K]	7.77
PPVKRRADFETDH [L7A]	0.491

Further values, each from its own experiment
Substance	target	test	system	setting	how to read	measurement	result
PhoQ, residues 284 288 289 292 302 303 SLSLLA	PhoP, residues 12 14 15 18 19 NQFFI (Escherichia coli, UniProt P23836)	Sort-seq, measured: YFP reporter	E. coli	PhoQ-PhoP variant library, together with: 10 µM Mg2+	baseline: high Mg2+ state, higher = stronger signaling	fold induction	11.2

Some of these lines once more (series 2):
Sequence	E-score
AATCAACG	-0.122
ATCCCGCA	0.166
AGAGCTGC	0.0486
CCATGCCG	0.223
CTGGGAAC	-0.205
